Assay results collected from several papers.
± gives the spread as reported. Values after ≈ are worked out from the molar mass of the structure shown.

SMILES | tested on | test | system | setting | how to read | measurement | value
COc1ccc2cc1Oc1ccc(cc1)C[C@H]1c3cc(c(OC)cc3CC[N+]1(C)Cc1ccc3ccccc3c1)Oc1c(OC)c(OC)cc3c1[C@H](C2)[N+](C)(Cc1ccc2ccccc2c1)CC3 (mixture of isomers) | mixed-sequence 12-bp dsDNA | DNA binding, ethidium bromide displacement | phosphate buffer, 10% DMSO | pH 7.2, 25 °C, dsDNA 10 µM, 10 mM NaCl, added: ethidium bromide 5 µM |  | Stern-Volmer constant | 16900 M⁻¹
CC(C)C[C@H](NC(=O)[C@H](CCCNC(=N)N)NC(=O)[C@H](CO)NC(=O)[C@H](Cc1c[nH]cn1)NC(=O)[C@H](CCCNC(=N)N)NC(=O)[C@@H]1CCCN1C(=O)[C@H](CCCNC(=N)N)NC(=O)[C@H](Cc1c[nH]cn1)NC(=O)[C@@H]1CCCN1C(=O)[C@H](CO)NC(=O)[C@H](CC(C)C)NC(=O)[C@H](CO)NC(=O)[C@H](CCCNC(=N)N)NC(=O)[C@H](CCCCN)NC(=O)[C@@H](NC(=O)[C@@H](NC(=O)CNC(=O)[C@H](CCCNC(=N)N)NC(=O)[C@H](Cc1c[nH]cn1)NC(=O)[C@H](Cc1c[nH]c2ccccc12)NC(=O)[C@H](Cc1ccccc1)NC(=O)[C@H](Cc1c[nH]cn1)NC(=O)[C@H](Cc1ccc(O)cc1)NC(=O)[C@@H](N)Cc1ccc(O)cc1)C(C)C)[C@@H](C)O)C(=O)N[C@@H](CCC(N)=O)C(=O)N[C@@H](CCCNC(=N)N)C(=O)O | LPS, Escherichia coli 0111:B4 | isothermal titration calorimetry |  | pH 7, 37 °C |  | Kd | 6.98 µM
CC(C)[C@]12O[C@H]1[C@@H]1O[C@]13[C@]1(O[C@H]1C[C@H]1c4c(C(=O)c5ccccc5)oc(OC(=O)c5ccccc5)c4CC[C@@]13C)[C@@H]2O | AML patient cells | apoptosis, Annexin V flow cytometry |  | 24 h |  | EC50 | 40.6 nM
CC[C@@H]1CN2CC[C@@]3(O)C(=Nc4cccc(OC)c43)[C@@H]2C[C@@H]1/C(=C\OC)C(=O)OC | rabbit anti-mitragynine polyclonal antibody | antigen binding, competitor, competitive indirect ELISA |  | 0.001 to 50.0 µg/mL |  | IC50 | 0.971 µg/mL
CCCCCc1cc(O)c2c(c1)OC(C)(C)C1CCC(C)=CC21 (stereo not shown) |  |  | rabbit, α-chymotrypsin-induced glaucoma | topical, 50 µL of 0.5% w/v, 30 min |  | IOP relative to baseline | 66%
Nc1ccc(/C=C/C(=O)N2CCc3c(oc4c(-c5ccc(F)cc5)cc(-c5ccc(C(=O)N6CCC(F)(F)CC6)cn5)cc34)C2)cn1 | MIA PaCa-2 | western blot, refers to: cyclin D1 |  | 0.05 to 5 µM, 72 h |  | protein level | decreased
COc1ccc2cc1Oc1ccc(cc1)C[C@H]1c3cc(c(OC)cc3CC[N@+]1(C)Cc1ccc3ccc4cccc5ccc1c3c45)Oc1c(OC)c(OC)cc3c1[C@H](C2)[N@@+](C)(Cc1ccc2ccc4cccc5ccc1c2c45)CC3 | mixed-sequence 12-bp dsDNA | DNA binding, ethidium bromide displacement | phosphate buffer, 10% DMSO | pH 7.2, 25 °C, dsDNA 10 µM, 10 mM NaCl, added: ethidium bromide 5 µM |  | Stern-Volmer constant | 48400 M⁻¹
O=C(O)CC[C@H](NC(=O)N[C@@H](CCCCNC(=O)[C@H](Cc1ccc2ccccc2c1)NC(=O)[C@H]1CC[C@H](CNC(=O)CNC(=O)CNC(=O)CNC(=O)CN2CCN(CC(=O)O)CCN(C(CCC(=O)NCCC[P+](c3ccccc3)(c3ccccc3)c3ccccc3)C(=O)O)CCN(CC(=O)O)CC2)CC1)C(=O)O)C(=O)O (stereo partly shown) [terbium-161 labelled] | PC-3 PIP |  |  | concentration not given |  | γ-H2AX foci per nucleus | 39
CC[C@H]1CN2CCc3c([nH]c4cccc(OC)c34)[C@@H]2C[C@@H]1/C(=C\OC)C(=O)OC | rabbit anti-mitragynine polyclonal antibody | antigen binding, competitor, competitive indirect ELISA |  | 0.001 to 50.0 µg/mL |  | IC50 | 1.47 µg/mL
CC[C@H](C)[C@H](NC(=O)[C@H](CCCCN)NC(=O)[C@H](CCCCN)NC(=O)[C@H](C)NC(=O)[C@@H](NC(=O)[C@H](C)NC(=O)[C@H](CC(C)C)NC(=O)[C@H](CC(C)C)NC(=O)[C@H](C)NC(=O)[C@H](CCCCN)NC(=O)[C@H](CC(C)C)NC(=O)[C@H](CC(N)=O)NC(=O)[C@@H](N)CC(C)C)C(C)C)C(=O)N[C@@H](CC(C)C)C(N)=O | U251MG | MTT |  | 24 h |  | IC50 | 36.6 µM
C[C@@](O)(C(F)F)[C@H](NC(=O)c1ccc(C#CC#CC2CC2)cc1)C(=O)NO | Stenotrophomonas maltophilia | agar dilution | clinical isolates |  |  | MIC50 | 0.25 µg/mL (≈ 0.664 µM)
CC(/C=C/C(O)=C1/C(=O)CNC1=O)=C\[C@@H](C)[C@H]1O[C@@]2(C)O[C@H](C(=O)[C@@H]3O[C@@]32CO)[C@@H]1C | Enterococcus |  | vancomycin-resistant |  |  | MIC | 12.5 µM (≈ 5.42 µg/mL)
CC(C)CC(C(=O)N1CC2(CC1C#N)C(=O)Nc1ccccc12)N(C)C(=O)c1cc2c(F)cc(F)c(F)c2[nH]1 (stereo not shown) | human cysteine proteases | inhibitor |  |  |  | IC50 | ≥ 2 µM
O=C(O)CC[C@H](NC(=O)N[C@@H](CCCCNC(=O)[C@H](Cc1ccc2ccccc2c1)NC(=O)[C@H]1CC[C@H](CNC(=O)CN2CCN(CC(=O)O)CCN(C(CCC(=O)NCCC[P+](c3ccccc3)(c3ccccc3)c3ccccc3)C(=O)O)CCN(CC(=O)O)CC2)CC1)C(=O)O)C(=O)O (stereo partly shown) [terbium-161 labelled] | PC-3 PIP |  |  |  | relative to: applied activity | mitochondrial uptake | 5.4 ± 0.4%
COc1ccc(-c2ccn(CC[C@](C)(C(=O)NO)S(C)(=O)=O)c(=O)c2)c(F)c1 | Stenotrophomonas maltophilia | microbial growth, broth dilution |  | clinical isolate |  | MIC90 | 2 µg/mL (≈ 4.85 µM)
C/C1=C\CC[C@@]2(C)O[C@H]2[C@H]2OC(=O)C(C)[C@@H]2CC1 (stereo partly shown) | U-87 MG | cell growth or viability, resazurin |  |  |  | IC50 | > 500 µM
CC(C)[C@H](NC(=O)CNC(=O)[C@H](CCCNC(=N)N)NC(=O)[C@H](Cc1c[nH]cn1)NC(=O)[C@H](Cc1c[nH]c2ccccc12)NC(=O)[C@H](Cc1ccccc1)NC(=O)[C@H](Cc1c[nH]cn1)NC(=O)[C@H](Cc1ccc(O)cc1)NC(=O)[C@@H](N)Cc1ccc(O)cc1)C(=O)N[C@H](C(=O)N[C@@H](CCCCN)C(=O)N[C@@H](CCCNC(=N)N)C(=O)O)[C@@H](C)O | LPS, Escherichia coli 0111:B4 | isothermal titration calorimetry |  | pH 7, 37 °C |  | Kd | 19 µM
CCC(=C(c1ccc(Cl)cc1)c1ccc(OCCCN(C)C)cc1)c1ccc(Cl)cc1 | influenza A virus H1N1 | cytopathic effect, visual CPE | MDCK |  |  | EC50 | 0.32 µg/mL
CN(C)CCc1c[nH]c2ccc(Cl)cc12 |  |  | mouse, prefrontal cortex | intraperitoneal, 10 mg/kg, 30 min |  | Egr1 mRNA level | increased

Repeated from above:
SMILES | tested on | test | system | setting | how to read | measurement | value
CC(C)CC(C(=O)N1CC2(CC1C#N)C(=O)Nc1ccccc12)N(C)C(=O)c1cc2c(F)cc(F)c(F)c2[nH]1 (stereo not shown) | human cysteine proteases | inhibitor |  |  |  | IC50 | ≥ 2 µM
CC[C@H](C)[C@H](NC(=O)[C@H](CCCCN)NC(=O)[C@H](CCCCN)NC(=O)[C@H](C)NC(=O)[C@@H](NC(=O)[C@H](C)NC(=O)[C@H](CC(C)C)NC(=O)[C@H](CC(C)C)NC(=O)[C@H](C)NC(=O)[C@H](CCCCN)NC(=O)[C@H](CC(C)C)NC(=O)[C@H](CC(N)=O)NC(=O)[C@@H](N)CC(C)C)C(C)C)C(=O)N[C@@H](CC(C)C)C(N)=O | U251MG | MTT |  | 24 h |  | IC50 | 36.6 µM
COc1ccc2cc1Oc1ccc(cc1)C[C@H]1c3cc(c(OC)cc3CC[N+]1(C)Cc1ccc3ccccc3c1)Oc1c(OC)c(OC)cc3c1[C@H](C2)[N+](C)(Cc1ccc2ccccc2c1)CC3 (mixture of isomers) | mixed-sequence 12-bp dsDNA | DNA binding, ethidium bromide displacement | phosphate buffer, 10% DMSO | pH 7.2, 25 °C, dsDNA 10 µM, 10 mM NaCl, added: ethidium bromide 5 µM |  | Stern-Volmer constant | 16900 M⁻¹
